# Experimental data gathered from unrelated publications.
# Sequences of proteins named here, by UniProt entry; tags and fusion partners are left off. Residues count along the entry.
# UniProt Q6PL18, whole entry: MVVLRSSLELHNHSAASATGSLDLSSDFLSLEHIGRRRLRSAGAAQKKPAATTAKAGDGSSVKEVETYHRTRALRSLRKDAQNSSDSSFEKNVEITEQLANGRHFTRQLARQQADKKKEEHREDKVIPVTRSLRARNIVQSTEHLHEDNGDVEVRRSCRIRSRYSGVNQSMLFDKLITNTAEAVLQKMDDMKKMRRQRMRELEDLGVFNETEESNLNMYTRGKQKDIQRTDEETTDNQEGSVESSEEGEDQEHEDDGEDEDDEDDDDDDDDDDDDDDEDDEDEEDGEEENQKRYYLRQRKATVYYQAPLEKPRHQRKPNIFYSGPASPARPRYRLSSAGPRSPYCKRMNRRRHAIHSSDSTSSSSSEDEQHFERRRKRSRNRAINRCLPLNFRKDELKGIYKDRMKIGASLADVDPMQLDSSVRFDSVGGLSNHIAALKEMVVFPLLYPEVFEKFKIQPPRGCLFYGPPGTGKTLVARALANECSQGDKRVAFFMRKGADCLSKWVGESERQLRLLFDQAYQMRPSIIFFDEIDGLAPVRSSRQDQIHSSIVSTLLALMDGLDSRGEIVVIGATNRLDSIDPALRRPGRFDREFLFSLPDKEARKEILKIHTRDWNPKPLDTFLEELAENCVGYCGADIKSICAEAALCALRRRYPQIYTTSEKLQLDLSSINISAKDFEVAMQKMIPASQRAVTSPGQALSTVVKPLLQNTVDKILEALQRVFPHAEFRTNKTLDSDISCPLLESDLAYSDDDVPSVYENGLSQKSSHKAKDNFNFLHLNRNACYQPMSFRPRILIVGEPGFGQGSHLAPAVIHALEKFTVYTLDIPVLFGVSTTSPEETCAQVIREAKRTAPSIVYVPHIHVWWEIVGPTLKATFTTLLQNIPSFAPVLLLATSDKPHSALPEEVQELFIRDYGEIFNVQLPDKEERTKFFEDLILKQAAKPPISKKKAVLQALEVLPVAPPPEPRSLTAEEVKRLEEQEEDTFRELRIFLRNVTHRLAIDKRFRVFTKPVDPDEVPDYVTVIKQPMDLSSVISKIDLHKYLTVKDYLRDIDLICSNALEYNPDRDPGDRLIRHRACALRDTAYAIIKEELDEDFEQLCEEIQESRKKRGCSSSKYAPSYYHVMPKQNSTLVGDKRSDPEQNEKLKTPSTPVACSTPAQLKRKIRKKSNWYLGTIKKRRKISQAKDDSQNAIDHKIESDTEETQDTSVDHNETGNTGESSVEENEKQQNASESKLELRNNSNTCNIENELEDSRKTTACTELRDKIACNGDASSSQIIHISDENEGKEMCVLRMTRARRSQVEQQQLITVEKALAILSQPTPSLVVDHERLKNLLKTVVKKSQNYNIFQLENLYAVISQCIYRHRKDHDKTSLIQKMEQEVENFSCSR
# UniProt P10636, whole entry, looked up: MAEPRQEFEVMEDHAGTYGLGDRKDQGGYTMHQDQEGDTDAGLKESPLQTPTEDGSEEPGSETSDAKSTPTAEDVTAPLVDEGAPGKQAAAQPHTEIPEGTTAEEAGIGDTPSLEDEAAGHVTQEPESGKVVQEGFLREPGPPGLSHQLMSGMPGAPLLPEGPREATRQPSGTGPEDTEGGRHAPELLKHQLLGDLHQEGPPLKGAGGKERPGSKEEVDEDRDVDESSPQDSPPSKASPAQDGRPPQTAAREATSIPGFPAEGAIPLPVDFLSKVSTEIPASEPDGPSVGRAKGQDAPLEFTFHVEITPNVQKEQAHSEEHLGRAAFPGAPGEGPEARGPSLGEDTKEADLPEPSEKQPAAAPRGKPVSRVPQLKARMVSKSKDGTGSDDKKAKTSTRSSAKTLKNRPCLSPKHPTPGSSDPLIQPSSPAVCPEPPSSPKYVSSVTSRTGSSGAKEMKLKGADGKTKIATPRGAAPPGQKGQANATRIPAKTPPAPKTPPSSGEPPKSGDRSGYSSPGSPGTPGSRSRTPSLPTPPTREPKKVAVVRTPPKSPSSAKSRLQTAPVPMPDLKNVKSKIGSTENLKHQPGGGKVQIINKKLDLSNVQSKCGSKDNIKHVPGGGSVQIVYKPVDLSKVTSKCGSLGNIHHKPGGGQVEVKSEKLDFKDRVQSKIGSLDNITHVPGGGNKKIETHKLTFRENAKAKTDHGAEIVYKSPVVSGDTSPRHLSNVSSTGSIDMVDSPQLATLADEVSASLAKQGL
# UniProt P10721, 589-937 limits assumed: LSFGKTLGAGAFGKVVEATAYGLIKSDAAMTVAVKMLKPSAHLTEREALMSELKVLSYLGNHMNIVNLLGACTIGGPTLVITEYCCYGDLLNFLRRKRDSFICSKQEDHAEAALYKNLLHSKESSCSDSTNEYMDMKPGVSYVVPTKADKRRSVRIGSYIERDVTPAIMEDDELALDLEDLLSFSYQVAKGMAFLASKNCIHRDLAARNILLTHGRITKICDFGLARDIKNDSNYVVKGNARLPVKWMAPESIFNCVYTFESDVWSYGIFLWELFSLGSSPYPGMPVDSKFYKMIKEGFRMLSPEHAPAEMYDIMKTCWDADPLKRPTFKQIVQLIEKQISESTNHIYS
# Each line is one published result; not all experiments were run side by side. Numbers after ± are the reported error.
Compound,target or system,test,test system,setting,scale,measurement,value
CC[C@@H]1C(=O)N(C)c2cnc(Nc3ccc(C(=O)NC4CCN(C)CC4)cc3OC)nc2N1C1CCCC1,"ATPase family AAA domain-containing protein 2 (ATAD2, Homo sapiens, UniProt Q6PL18)",,,10 µM,,delta Tm,-0.1 ± 0.17 °C
Cc1cccc(NC(=O)c2nn(Cc3cnc[nH]3)c3c2CN(C(=O)c2ccc[nH]2)CC3)c1,IDH1 R132G AML cells,Hoechst/Pyronin Y staining,,"3 µM, 7 days",,G0-phase cells,65.7 ± 6.5%
Cc1c(O)cc2c(c1C)O[C@](C)(CCCC(C)C)CC2,LNCaP,immunocytochemistry,,"25 µM, 6 h",,membrane-associated PDK1,~50%
C[C@]12CCC(=O)C=C1CCC1C2CC[C@]2(C)C(n3cnc4ccccc43)=CCC12 (stereo partly drawn),LAPC4,"cell proliferation, MTT",,"7 days, without DHT",,IC50,3000 nM
Fc1cc(-c2ccc3c(n2)[nH]c2ccncc23)ccn1 [isotope labelled],"Microtubule-associated protein tau, paired helical filaments (MAPT, Homo sapiens, UniProt P10636)",radioligand binding,PHF tau brain homogenate,18.97 nM,higher = more binding,specific binding,11 a.u.
O=C(Nc1cccnn1)N1CC(Oc2ccc(-c3ccccc3F)cn2)C1,,,healthy humans,"oral, dose not given, day 7, once daily dosing",baseline: exposure at half dose,Cmax fold per doubling,1.7 fold
Cc1ccc([C@H](CC(=O)O)NC(=O)Nc2c(O)c(C)cn(Cc3ccccc3Cl)c2=O)cc1,B-ALL cells,flow cytometry,,"1 to 25 µM, 24 to 96 h",,surface integrin alpha-6 level,no effect
CC(C)c1cc2c(N3CCN(C4=NCC(C)(C)S4)CC3)ncnc2s1,MLL-ENL transduced mouse BMC,"cell growth, MTT",,,,GI50,~5000 nM
Nc1c(C(=O)Nc2c(F)cc(F)cc2Br)sc2nc3c(cc12)CCC3,H1299,measured: p-AMPK and p-ACC1,,"concentration not given, 12 h",,protein phosphorylation,increased
O=C1CCC(N2C(=O)c3cccc(NCCOCCOCCOCCN4CCN(c5ccc(-c6ccc7c(c6)C(=O)N(C(C(=O)Nc6nccs6)c6ccccc6)C7)cn5)CC4)c3C2=O)C(=O)N1 (stereo not drawn),Ba/F3 EGFR L858R/T790M/L718Q,cell proliferation,,,,EC50,28 nM
COc1cc(CC(=O)NCC(NC(=O)C(CCCNC(=O)c2cccc(I)c2)NC(=O)C(Cc2ccc(C(F)(F)P(=O)(O)O)cc2)NC(=O)c2ccc(C)c(Br)c2)C(N)=O)ccc1O (stereo not drawn),mouse hepatocytes,Western blot,,"1 h, no insulin",baseline: vehicle,GSK-3β phosphorylation,2 fold
CCN1CCN(Cc2ccc(NC(=O)c3ccc(C)c(Oc4ncnc5cc(OC)c(OC)cc45)c3)cc2C(F)(F)F)CC1,"Mast/stem cell growth factor receptor Kit (KIT, Homo sapiens, UniProt P10721)",KINOMEscan competition binding,,1.0 µM,,residual probe binding,0.8%
